Measured values pooled from the literature.
A part holds a random share of what one study measured.

Series 1
Target: Prothrombin, mature alpha-thrombin (F2, Homo sapiens, UniProt P00734)
Technique: aptamer microarray, sandwich
Form: DNA with 2'F-ANA
Medium: in vitro
Concentration: 200 nM
Setting: whole 15-mer aptamer, many near background
Together with: Cy3 exosite-II aptamer, 400 nM
Reading: higher = stronger binding
Measurement: mean fluorescence intensity
Strand: GGTTGGTGTGGTTGG
2'F-ANA at 3 6 10 11 12 13 14: 392 a.u.
2'F-ANA at 1 3 5 6 7 11 13 14 15: 100 a.u.
2'F-ANA at 4 5 7 10 11 12 14: 45.3 a.u.
2'F-ANA at 2 3 5 6 8 9 11 14: 52.3 a.u.
2'F-ANA at 4 5 6 7 8 9 14: 50.3 a.u.
2'F-ANA at 1 2 3 5 6 7 8 11 13: 54.5 a.u.
2'F-ANA at 1 2 3 4 6 7 9 14 15: 56.4 a.u.
2'F-ANA at 1 4 6 7 9 10 14: 43.9 a.u.
2'F-ANA at 2 3 7 9 11 12 13: 827 a.u.
2'F-ANA at 1 2 5 6 11 15: 53.5 a.u.
2'F-ANA at 4 6 8 10 11 12 13: 110 a.u.
2'F-ANA at 2 7 8 9 12 13 14 15: 167 a.u.
2'F-ANA at 1 4 5 6 8 10 12 13 14: 50.7 a.u.
2'F-ANA at 1 4 5 8 9 12 14: 51 a.u.
2'F-ANA at 3 5 7 10 12 15: 81.7 a.u.
2'F-ANA at 1 9 11 12: 321 a.u.
2'F-ANA at 3 4 5 6 7 11 13 14 15: 52.2 a.u.
2'F-ANA at 1 4 7 15: 139 a.u.
2'F-ANA at 3 5 7 10 12 13 14: 50.9 a.u.

Series 2
Target: Interferon regulatory factor 7, full length, phosphomimetic (IRF7, Homo sapiens, UniProt Q92985, residues 1-503, S101K/S471D/S472D/S475D/S476D/S477D/S483D/S484D/S487D)
Technique: protein-binding microarray
Form: double-stranded DNA, one strand shown
Medium: in vitro
Concentration: 250 nM
Setting: 60-bp whole probe
Together with: salmon DNA 0.4 mg/ml
Reference: random background probes
Reading: higher = stronger binding
Measurement: log fluorescence
Shared flanks, not repeated: GCCTAGCAC … GTCTTGATTCGCTTGACGCTGCTG
Residues (chain): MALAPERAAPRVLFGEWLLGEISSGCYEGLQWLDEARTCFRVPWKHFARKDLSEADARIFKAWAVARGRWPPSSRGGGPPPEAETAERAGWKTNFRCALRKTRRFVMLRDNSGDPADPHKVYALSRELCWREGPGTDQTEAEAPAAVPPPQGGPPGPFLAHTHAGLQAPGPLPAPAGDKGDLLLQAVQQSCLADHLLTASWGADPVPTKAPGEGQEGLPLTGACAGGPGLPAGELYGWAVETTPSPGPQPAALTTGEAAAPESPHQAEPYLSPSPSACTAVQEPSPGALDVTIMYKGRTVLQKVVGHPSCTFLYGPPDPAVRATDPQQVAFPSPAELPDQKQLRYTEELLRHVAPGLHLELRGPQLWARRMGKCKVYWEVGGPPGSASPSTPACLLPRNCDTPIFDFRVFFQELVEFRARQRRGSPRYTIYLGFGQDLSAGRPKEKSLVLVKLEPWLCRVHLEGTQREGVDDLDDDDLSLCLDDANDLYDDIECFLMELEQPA
TTAGGTTTCGACTAGCGGTTAGTGCTA: 6.31 z-score
GAAGGTATCGACTATCGGGACGTGCTA: -0.195 z-score
CACAGAATCCCCTTCTACTCGTGCTAG: 0.203 z-score
TTAGGTTTCGACTATGGGTTAGTGCTA: 4.61 z-score
CACGGTCTCCTTCTCCTGACGTGCTAG: 0.195 z-score
GACGGTATCGACTATCGTGACGTGCTA: -0.218 z-score
TTAGGTTTCGGTCTCGGCTAGTGCTAG: 7.33 z-score
TTAGATAACAGTTTCGATTAGTGCTAG: 8.46 z-score
CCAGGTTGGGAGGGGTAGGGGTGCTAG: 1.86 z-score
GACGGCCTGCTTCTCCTGACGTGCTAG: -0.232 z-score
TTAGATATCAGTCTCGAGTAGTGCTAG: 0.36 z-score
TCAAATTACCTTTTCACACTGTGCTAG: 1.06 z-score
TTGGTTCTGATCCTTCCCCTCGTGCTA: 0.452 z-score
AACCATTTTGGTTTTCCTTAGTGCTAG: 0.9 z-score
TTAGGTCTTCTTTTCCTTTAGTGCTAG: 1.48 z-score
GACGGTCTCCTCCTGCTGACGTGCTAG: 0.126 z-score
TCACTCTTGCTTTTTAGACTGTGCTAG: 0.429 z-score
TTAGGTTGCCTTATCCTTTAGTGCTAG: 0.0204 z-score
GTCTGTTTCCTCTTTCTTTGGTGCTAG: 2.35 z-score

Series 3
Target: RNA binding protein fox-1 homolog 2, RRM domain, GST-SBP tag (RBFOX2, Homo sapiens, UniProt O43251-10, residues 100-194)
Technique: RNA Bind-n-Seq
Form: RNA
Medium: in vitro
Concentration: 365 nM
Setting: natural RNA segment, single round, ends assumed
Reference: no-protein control
Reading: higher = stronger binding
Measurement: RBNS enrichment (R)
Shared flanks, not repeated: GGGAGUUCUACAGUCCGACGAUC … UGGAAUUCUCGGGUGCCAA
Residues (chain): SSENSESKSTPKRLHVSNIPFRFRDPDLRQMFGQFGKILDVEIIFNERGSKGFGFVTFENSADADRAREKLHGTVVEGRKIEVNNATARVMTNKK
UCUCAUUACUUAUAGUUUAUCUAUAUUAAACAAAUUUAAUUGCAUUUUAAAGCAUUCUUUGAUACUGUUGCUUUUGCAAUAAAUAUGGAUAAUCUUGGUUAUAAGGGAGU: 0.56
AGUAGGGGCUCUUGAGAGUAUUGAAAGGCAGUGCUGCCUUUAUGCAGGAAGGUAUAAACCGGUUAUGCACAUUGGAGCCCUUUGCUUUCACCUUACAUUCUGGAUGCAUU: 0.374
AACCUUUUAACUAUAUAUAAAGUACUUUUUUGGUUUCUUUCUCACCACUUUUAUUCAAAAGUACUUUUAACAUACCAAUACAUAGUCUGUCUGAUGGGAGUAUAAAUUGG: 0.607
UGGUCUGGCCACGUUUGUUAAAUCCUUAUACUGAUAUUCUUCUAAAGAGUAAAUCUCAUCAUUUUUCCAGACAAAUUUUGAGGGGUUUCUCUGUUUUGUGGACAGGCAGC: 0.603
AAAGCAUUCUUCCCAGGGGAAGAGUGUAUCAUGCAUAACUGCAAUUUAAGUCCUUCCUUUGAUAAUACUUCAAAACAUACACAGCUUUGCUUACUGAAUUAUUUUUGCAA: 0.569
AACAGAAAUUACAUGAGGAAUAUUCCGGCUAGAUUAGGCGCCUGUGGAUAUUGGAGUUGGGUUGAUUUUCCUGAAUUGGUUCCUAUAGGAUCCUCCAAUUUUGGAUCUUC: 0.432
UGGGGGAAGAAGUGGAAACUAUGUCCAGUGAACUUUUCCAGUAAAUGAAGCAAGCACUAAAGUACUGUCCUGAGUUGGGAACAAAGCACUGUGGGCAAGGUCGAUGCAAU: 0.4
CAAGAACCAACAUCACUGCUCUUUUAGAUAAACCUCUGCCCUCCACUCCUUGCUUGAGUGGGUUAAAGGAACUAACAGUUGUCCCUUUAGGAGGACAAAAUGGGGUCAAG: 0.335

Series 4
Target: Ras GTPase-activating protein-binding protein 1, full length (G3BP1, Homo sapiens, UniProt Q13283)
Chain of UniProt Q13283 (whole entry, looked up): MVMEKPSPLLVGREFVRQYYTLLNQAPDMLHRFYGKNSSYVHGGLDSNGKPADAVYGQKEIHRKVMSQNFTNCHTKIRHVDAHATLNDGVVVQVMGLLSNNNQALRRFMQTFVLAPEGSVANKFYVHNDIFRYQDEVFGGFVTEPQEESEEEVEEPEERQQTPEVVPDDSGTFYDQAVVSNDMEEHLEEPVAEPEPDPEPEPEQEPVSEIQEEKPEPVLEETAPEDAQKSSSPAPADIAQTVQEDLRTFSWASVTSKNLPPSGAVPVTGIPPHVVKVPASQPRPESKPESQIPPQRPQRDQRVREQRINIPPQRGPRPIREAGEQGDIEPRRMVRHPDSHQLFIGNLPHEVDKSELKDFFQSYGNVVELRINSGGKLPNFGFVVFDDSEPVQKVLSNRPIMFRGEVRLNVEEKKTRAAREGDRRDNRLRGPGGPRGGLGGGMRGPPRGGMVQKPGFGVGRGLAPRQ
Technique: RNA Bind-n-Seq
Form: RNA
Medium: in vitro
Concentration: 200 nM
Setting: whole 134-nt RNA, ends assumed
Together with: 150 mM LiCl
Reference: input library
Reading: higher = stronger binding
Measurement: log2 enrichment
All molecules: 7-deaza-guanosine replaces G
Shared flanks, not repeated: GGGAGUUCUACAGUCCGACGAUC … UGGAAUUCUCGGGUGUCAAGG
GUCCUGUGCUACACAUCGUAUGUACCGAAUCGGGAAAAAAAGGGUUUUUUUGGGAGGGAAAGUAUUAUGUUACGCCGUUCGGAUCUGCAC: -1.36
AGUCCUGUGCUACACAUCGUAUGUACCGAAUCGGAAAAAGGUUUUUGGAAAAAAAGGAAAGUAUUAUGUUACGCCGUUCGGAUCUGCACU: -1.9
CUCAAGUCCUGUGCUACACAUCGUAUGUACCGAAUCGGUGGAAAAAGGAAAGGAAAGUAUUAUGUUACGCCGUUCGGAUCUGCACUUCCA: 0.0777
GUCCUGUGCUACACAUCGUAUGUACCGAAUCGGGUUUUUGGGGUUUUUGGUUUUUGGGGAAAGUAUUAUGUUACGCCGUUCGGAUCUGCA: -1.03
AAGUCCUGUGCUACACAUCGUAUGUACCGAAUCGGGGAAAGGGGUGGGGUUUGGGGAAAGUAUUAUGUUACGCCGUUCGGAUCUGCACUU: -0.522
UAACUUUAGAGGAGGAUAUGAUGGAUAUGGCAGUGGACGUGGAUUUGGGGAUGGCUAUAAUGGGUAUGGAGGAGGACCUGGAGGUGGCAA: 0.171
CCUCAAGUCCUGUGCUACACAUCGUAUGUACCGAAUCGGGGAGGGAGGAGGGAAAGUAUUAUGUUACGCCGUUCGGAUCUGCACUUCCAG: 0.532
ACCAUGCAGGUGGGCAUCUUUGGGAAGUGGGGCAAGGGGGGGAUAGGGAGGGGGGUAACACUAUGGGAACAGGUGGUCCCAGGUCGUUUC: 0.298

Excerpt of the above (series 2):
TTAGGTTTCGGTCTCGGCTAGTGCTAG: 7.33 z-score
TTAGATAACAGTTTCGATTAGTGCTAG: 8.46 z-score
AACCATTTTGGTTTTCCTTAGTGCTAG: 0.9 z-score
TTAGGTTGCCTTATCCTTTAGTGCTAG: 0.0204 z-score
TCAAATTACCTTTTCACACTGTGCTAG: 1.06 z-score
